# Experimental data pooled from the literature.
# Every numbered part comes from another study and shows a few of its results, in no order. Changes are numbered by the printed parent chain.

# Series 1
# Target: Sal-like protein 4, full length isoform B (SALL4, Homo sapiens, UniProt Q9UJQ4-2, residues 1-616)
# Technique: universal PBM
# Form: double-stranded DNA, one strand shown
# Sample: in vitro
# Concentration: not given
# Setting: 8-mer, flanks averaged, mean of replicates
# Reading: higher = stronger binding
Strand,E-score
CCCAAATA,0.0203
AGACCAAG,-0.142
ATCGGATA,0.149
AACTTCGT,-0.0725
CTGTAAAG,0.0787
CATTGAAC,0.112
CTATGTTA,0.21
CCGGCCCC,-0.349
AGTGTCTC,-0.207
CAGAACTC,-0.184
AGTTGTGG,0.0838
AACCATGG,-0.0709
CCTTTCAG,-0.0923
GTATAGCA,0.197
CAATGCGC,-0.0475
ATAAACCG,0.0827

# Series 2
# Target: Histone acetyltransferase KAT6A, winged helix 1, GST fusion (KAT6A, Homo sapiens, UniProt Q92794, residues 1-85)
# Technique: protein binding microarray
# Form: double-stranded DNA, one strand shown
# Sample: in vitro
# Concentration: not given
# Setting: 8-mer, flanks averaged, mean of 2 arrays, mostly near background
# Baseline: not given
# Reading: higher = stronger binding
# Target sequence (chain): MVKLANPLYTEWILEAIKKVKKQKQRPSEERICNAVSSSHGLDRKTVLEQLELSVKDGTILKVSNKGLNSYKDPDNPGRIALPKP
Strand,E-score
GCACTACA,-0.112
CTCCCTTC,-0.14
CCAACCGA,-0.116
CAGAGATA,-0.155
GAAGAAAA,-0.216
AGGGGTGG,-0.147
CCAACTTC,-0.177
AAGATCAT,-0.107
AGAATCGC,0.153
TAACCAGA,-0.149
GCATGCGA,0.169
GCCAGTGA,-0.213
ATGCTTGC,0.0399
CCCCACAG,-0.166

# Series 3
# Target: RNA binding protein fox-1 homolog 2, RRM domain, GST-SBP tag (RBFOX2, Homo sapiens, UniProt O43251-10, residues 100-194)
# Technique: RNA Bind-n-Seq
# Form: RNA
# Sample: in vitro
# Concentration: 365 nM
# Setting: natural RNA segment, single round, ends assumed
# Baseline: no-protein control
# Reading: higher = stronger binding
# Shared flanks, not repeated: GGGAGUUCUACAGUCCGACGAUC … UGGAAUUCUCGGGUGCCAA
# Target sequence (chain): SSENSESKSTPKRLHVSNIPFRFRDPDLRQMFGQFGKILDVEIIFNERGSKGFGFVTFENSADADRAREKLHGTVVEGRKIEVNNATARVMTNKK
Strand,RBNS enrichment (R)
CAGUUUUUCCUUCGGGGUAUACUAUUUUAGAUACACCUACUUCACAGGAGUACUGGAGGGAUUUGCAAGCUAACGGGCCAAAUGCUUCCAUAGGAAUAAGGCAUGCCCAG,2.44
UAUAUGUGGCCACACUGAUGUUCACCUUUACGUCCAGGGUCUUUGUGCCUUGUCUCUACUCCCUCUCUUGGAUCUGGGGAGGAGGGGCAGAGACCUGGGACUCUGUAUUU,0.348
AAAAGUUGUCUCUAGAGAAAAUACUAUUACAAUCUAAGCAUGAUUCUCUGUGGAGACUAAUUUUUUCCCCUUUUGCCAAAAGCAGUCCUUCCCAAAUUAACAAAGCAAAC,1.91
UUAACCGGAACAUCGUCUAGCUGGUGUUAGGAAUGUUUGCUUAAUUUCCAGACUUUUUUUUAAAAACACAUCGUGGGUUUUUUGAGGCUCCAACCUGAUUAGUGCAUGGU,2.19
CCAAUAAAACCUUUAGAUUCUGGUGAAGCCAGAGCCUCUCCACAGUGGCUAAGGUUGUUGUUGAUCUUUUUCUCCUUUGUGUGAUCAUCACAGAUGCCAUUUCUGUUUUA,0.32
GUCCCUGCUCACUUCCAGUCAGGUCUCAGCUCCACCCCACUGUUUCUUGGUCAGCCUCAGUGAUGGCCUGACCCCAGCUGUGAGGCCUUGUGAGCUAAGGCUGAAGAGAC,0.336
GUAGCUCUAGGAAAAGAGGUUUUAUUUUGUAAACGAUCAUUUGUGACCUCAGACACUCUCUGGCUAAUAUUUUAAUAAGCUCACAGCAGAUAAUUCUGAGAUCAUGGGUG,0.421

# Series 4
# Target: Max dimerization protein 1, bHLH-zipper, MAX partner unstated (MXD1, Homo sapiens, UniProt Q05195, residues 56-136)
# Technique: protein-binding microarray
# Form: double-stranded DNA, one strand shown
# Sample: in vitro
# Concentration: not given
# Setting: k-mer, scored over probes, only values ≥0.25
# Reading: higher = stronger binding
# Residues (chain): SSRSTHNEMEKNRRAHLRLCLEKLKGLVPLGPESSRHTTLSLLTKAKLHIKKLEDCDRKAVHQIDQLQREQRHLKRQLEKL
Strand,E-score
CCGCGTGA,0.365
GCGTGATA,0.311
ACAAGCAT,0.255
ATCCACGC,0.306
CATGGTTC,0.259
AACATGAG,0.341
ATGCGTAA,0.263
GCCCCCCC,0.254
ACCCACGC,0.393
CATGCAGG,0.305
CACGCCGG,0.317
AACCATGT,0.281
GGCACGCC,0.254
AACCACGA,0.311
GCGTGGCA,0.343
CATGGGGC,0.318

# Series 5
# Target: Eukaryotic initiation factor 4A-I (EIF4A1, Homo sapiens, UniProt P60842, residues 1-406, full length assumed)
# UniProt P60842, sequence (whole entry, looked up): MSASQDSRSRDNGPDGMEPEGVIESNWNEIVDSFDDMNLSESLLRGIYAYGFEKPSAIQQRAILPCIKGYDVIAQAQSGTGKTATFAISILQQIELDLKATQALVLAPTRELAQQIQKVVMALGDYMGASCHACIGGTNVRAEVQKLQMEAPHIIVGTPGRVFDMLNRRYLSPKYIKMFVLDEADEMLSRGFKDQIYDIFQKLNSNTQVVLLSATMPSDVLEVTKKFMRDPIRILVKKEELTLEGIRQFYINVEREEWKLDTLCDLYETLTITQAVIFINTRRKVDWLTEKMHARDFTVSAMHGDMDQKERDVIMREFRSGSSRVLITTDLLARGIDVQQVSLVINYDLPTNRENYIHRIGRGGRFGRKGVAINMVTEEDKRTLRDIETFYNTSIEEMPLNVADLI
# Technique: RNA Bind-n-Seq
# Form: RNA
# Sample: in vitro
# Concentration: 90 pmol
# Setting: 4-mer, random 30-nt RNA, single round
# With: 3 µM DMDA-PatA, 2 mM ADP, 2 mM phosphate
# Baseline: input library
# Reading: higher = stronger binding
Strand,4-mer enrichment
ACUC,0.561 fold
UACA,0.783 fold
CCCA,0.726 fold
CGGG,1.19 fold
CUCC,0.595 fold
CCCC,0.845 fold
UUCA,0.816 fold
AGAG,1.65 fold
CCAU,0.627 fold
AAGG,1.22 fold
ACUU,0.633 fold
GCGA,1.76 fold
GGGU,1.33 fold
GUUA,1.11 fold
GAUG,1.05 fold
AUUG,0.998 fold
AGGU,1.15 fold
GGGA,1.19 fold
UUUC,0.791 fold
CCUA,0.583 fold
UUUA,1.12 fold
GGGG,1.22 fold

# Series 6
# Target: Interferon regulatory factor 5, full length, phosphomimetic (IRF5, Homo sapiens, UniProt Q13568-2, residues 1-514, S451D/S453D/S456D/S462D)
# Technique: protein-binding microarray
# Form: double-stranded DNA, one strand shown
# Sample: in vitro
# Concentration: 940 nM top
# Setting: 60-bp whole probe
# With: salmon DNA 0.4 mg/ml
# Baseline: random background probes
# Reading: higher = stronger binding
# Shared flanks, not repeated: GCCTAGCAC … GTCTTGATTCGCTTGACGCTGCTG
Strand,fitted relative affinity
TTCAATTCCTGAAATCTCTTTGTGCTA,0.779 z-score
TCATAGTTGTGTCTTGCACTGTGCTAG,-0.0773 z-score
TTAGGTTCCGGTTTCGGTTAGTGCTAG,9.51 z-score
TCTAATTAGAATTTAAAACAGTGCTAG,-0.281 z-score
GACGGTCTCGGTCTCGTGACGTGCTAG,3.66 z-score
TCAGCTTCCCAATTCTCACTGTGCTAG,0.938 z-score
TCATCACTCAATCTCAAACTGTGCTAG,0.699 z-score
TAAGGTTTCGACTTTCGGTTAGTGCTA,7.19 z-score
TCATGTGTCTTAAATAGGACTGTGCTA,-0.00139 z-score
GTCGAACTGGGGACTGGAGACGTGCTA,0.0847 z-score
TTAGGACTGTTTATCCTTTAGTGCTAG,0.1 z-score
TTAGGATTGGGTTTCGGTTAGTGCTAG,8.11 z-score
GACGGGCTGGGGTTTCGGGACGTGCTA,1.75 z-score
TCATTTTTCTAAACCATACTGTGCTAG,0.997 z-score
TTAGATATCTGGACTGGATTAGTGCTA,-0.309 z-score

# Series 7
# Target: ABI1, truncated, D143A, DHFR fusion (Arabidopsis thaliana)
# Technique: DHFR PCA, deep sequencing
# Sample: yeast
# Setting: methotrexate growth selection, single substitutions
# With: (+)-ABA 17 µM
# Baseline: wild-type fitted maximum
# Reading: higher = stronger binding
# Starting sequence: PYL1, truncated, DHFR fusion (Arabidopsis thaliana); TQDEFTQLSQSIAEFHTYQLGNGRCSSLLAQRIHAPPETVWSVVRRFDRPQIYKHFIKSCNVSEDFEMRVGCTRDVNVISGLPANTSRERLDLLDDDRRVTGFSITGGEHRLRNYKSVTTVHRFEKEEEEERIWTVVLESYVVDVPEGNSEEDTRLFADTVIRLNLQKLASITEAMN
Variant,relative binding score
V78Q,0.0208%
T160L,80.7%
M176K,81.8%
V121I,76.1%
I133K,95.3%
V121H,-1.25%
T106R,38.5%
F56K,3.32%
L166M,57.9%
R123I,31.2%
P37G,11.9%
R46F,-14.5%
G23D,73.8%
R46W,9.06%
Q7L,78.8%
K168S,87.6%

# Series 8
# Target: Prothrombin, mature alpha-thrombin (F2, Homo sapiens, UniProt P00734)
# Technique: aptamer microarray, sandwich
# Form: DNA with 2'F-ANA
# Sample: in vitro
# Concentration: 200 nM
# Setting: whole 15-mer aptamer, many near background
# With: Cy3 exosite-II aptamer, 400 nM
# Reading: higher = stronger binding
# Strand: GGTTGGTGTGGTTGG
Modification,mean fluorescence intensity [a.u.]
2'F-ANA at 2 4 5 6 7 9 14 15,138
2'F-ANA at 2 3 7 10 12 15,489
2'F-ANA at 1 2 5 7 8 10 11 15,137
2'F-ANA at 1 2 3 5 6 9 11 12,106
2'F-ANA at 2 3 6 7 8 11 13,652
2'F-ANA at 1 2 3 4 5 9 11 14,74.4
2'F-ANA at 2 4 6 7 11 12 15,388
2'F-ANA at 1 6 7 13 14,54.9
2'F-ANA at 3 5 6 7 13 14 15,57.7
2'F-ANA at 6 7 8 9 11 14 15,142
2'F-ANA at 1 2 7 8 12 14,79.6
2'F-ANA at 1 8 9 10 13 15,81
2'F-ANA at 3 5 7 8 9 11 13 14 15,58
2'F-ANA at 3 4 10 12 13 14,222
2'F-ANA at 2 3 5 6 9 13,60.1
2'F-ANA at 1 3 4 6 7 8 9 10 13,59.5
2'F-ANA at 1 2 5 6 7 8 9 11 13 14 15,47.9
2'F-ANA at 3 7 9 10 11,545
2'F-ANA at 5 7 8 10 11 14,44.2
2'F-ANA at 4 6 8 9,276
2'F-ANA at 1 5 6 7 9 13,49.1
2'F-ANA at 1 3 4 7 9 10 11 15,60.4
2'F-ANA at 4 5 6 8 14 15,46.9
2'F-ANA at 1 3 4 6 8 9 10 14 15,49

# Single results of other studies
Molecule,organism,test,system,setting,scale,measurement,result
PKRAKRKLYTSEISSP,Saccharomyces cerevisiae,"binding, yeast competitive growth sequencing","peptide, cyclin D2-Cln2 fusion strain",peptide tiling library,direction not given,enrichment score,-0.596

# Repeated from above (series 2):
Strand,E-score
GCACTACA,-0.112
CTCCCTTC,-0.14
CCAACCGA,-0.116
CAGAGATA,-0.155
GAAGAAAA,-0.216
AGGGGTGG,-0.147
CCAACTTC,-0.177
AAGATCAT,-0.107
AGAATCGC,0.153
TAACCAGA,-0.149
GCATGCGA,0.169
GCCAGTGA,-0.213
ATGCTTGC,0.0399
CCCCACAG,-0.166
